Measurements of several laboratories.
Each numbered part is a random draw from the data of one study; scales do not carry over between parts.
UniProt Q15349, sequence (whole entry, looked up): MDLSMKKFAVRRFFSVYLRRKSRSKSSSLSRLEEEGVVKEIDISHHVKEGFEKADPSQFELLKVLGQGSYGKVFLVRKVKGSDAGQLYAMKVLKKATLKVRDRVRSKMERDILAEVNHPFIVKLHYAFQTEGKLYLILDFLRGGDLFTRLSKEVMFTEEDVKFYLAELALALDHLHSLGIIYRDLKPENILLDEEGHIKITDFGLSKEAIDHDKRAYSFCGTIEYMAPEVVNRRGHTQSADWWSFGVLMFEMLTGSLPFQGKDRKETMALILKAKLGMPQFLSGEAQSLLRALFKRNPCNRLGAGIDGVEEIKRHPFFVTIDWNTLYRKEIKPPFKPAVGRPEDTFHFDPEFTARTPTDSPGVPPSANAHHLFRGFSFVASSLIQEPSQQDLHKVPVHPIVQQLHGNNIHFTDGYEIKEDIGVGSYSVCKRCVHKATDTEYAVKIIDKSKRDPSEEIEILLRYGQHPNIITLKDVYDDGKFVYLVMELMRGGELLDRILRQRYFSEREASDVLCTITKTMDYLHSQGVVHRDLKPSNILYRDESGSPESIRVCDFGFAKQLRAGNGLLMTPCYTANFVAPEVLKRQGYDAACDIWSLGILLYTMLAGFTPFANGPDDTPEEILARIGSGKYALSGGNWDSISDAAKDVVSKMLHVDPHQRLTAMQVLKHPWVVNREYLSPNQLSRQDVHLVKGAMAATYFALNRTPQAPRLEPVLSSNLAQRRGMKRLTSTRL
UniProt O00329, sequence (whole entry, looked up): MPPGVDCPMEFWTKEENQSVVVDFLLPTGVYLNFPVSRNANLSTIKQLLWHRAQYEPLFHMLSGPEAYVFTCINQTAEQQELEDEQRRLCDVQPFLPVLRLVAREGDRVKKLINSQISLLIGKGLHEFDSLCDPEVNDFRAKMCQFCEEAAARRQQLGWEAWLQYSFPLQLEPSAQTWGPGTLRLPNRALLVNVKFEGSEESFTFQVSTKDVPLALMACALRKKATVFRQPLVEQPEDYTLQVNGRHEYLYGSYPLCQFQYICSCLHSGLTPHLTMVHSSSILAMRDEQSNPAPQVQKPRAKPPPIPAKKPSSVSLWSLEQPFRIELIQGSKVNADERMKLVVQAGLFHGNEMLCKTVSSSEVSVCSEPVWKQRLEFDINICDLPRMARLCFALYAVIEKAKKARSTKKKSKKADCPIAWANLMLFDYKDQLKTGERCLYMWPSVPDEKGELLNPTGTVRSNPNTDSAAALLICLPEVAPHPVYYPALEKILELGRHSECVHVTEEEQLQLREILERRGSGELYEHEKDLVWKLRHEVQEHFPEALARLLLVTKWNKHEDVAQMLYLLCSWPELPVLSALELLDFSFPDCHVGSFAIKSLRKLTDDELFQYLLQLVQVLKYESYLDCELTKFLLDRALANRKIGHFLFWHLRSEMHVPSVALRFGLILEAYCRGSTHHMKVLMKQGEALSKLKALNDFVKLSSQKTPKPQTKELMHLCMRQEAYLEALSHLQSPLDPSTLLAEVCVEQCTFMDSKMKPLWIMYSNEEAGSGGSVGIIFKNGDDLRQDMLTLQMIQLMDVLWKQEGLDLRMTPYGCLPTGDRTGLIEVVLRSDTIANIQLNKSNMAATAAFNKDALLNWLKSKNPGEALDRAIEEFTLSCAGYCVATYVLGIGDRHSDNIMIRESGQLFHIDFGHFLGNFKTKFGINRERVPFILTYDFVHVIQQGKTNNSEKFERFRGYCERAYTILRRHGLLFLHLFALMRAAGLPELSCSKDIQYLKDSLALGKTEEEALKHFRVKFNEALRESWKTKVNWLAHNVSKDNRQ
UniProt Q13464, sequence (whole entry, looked up): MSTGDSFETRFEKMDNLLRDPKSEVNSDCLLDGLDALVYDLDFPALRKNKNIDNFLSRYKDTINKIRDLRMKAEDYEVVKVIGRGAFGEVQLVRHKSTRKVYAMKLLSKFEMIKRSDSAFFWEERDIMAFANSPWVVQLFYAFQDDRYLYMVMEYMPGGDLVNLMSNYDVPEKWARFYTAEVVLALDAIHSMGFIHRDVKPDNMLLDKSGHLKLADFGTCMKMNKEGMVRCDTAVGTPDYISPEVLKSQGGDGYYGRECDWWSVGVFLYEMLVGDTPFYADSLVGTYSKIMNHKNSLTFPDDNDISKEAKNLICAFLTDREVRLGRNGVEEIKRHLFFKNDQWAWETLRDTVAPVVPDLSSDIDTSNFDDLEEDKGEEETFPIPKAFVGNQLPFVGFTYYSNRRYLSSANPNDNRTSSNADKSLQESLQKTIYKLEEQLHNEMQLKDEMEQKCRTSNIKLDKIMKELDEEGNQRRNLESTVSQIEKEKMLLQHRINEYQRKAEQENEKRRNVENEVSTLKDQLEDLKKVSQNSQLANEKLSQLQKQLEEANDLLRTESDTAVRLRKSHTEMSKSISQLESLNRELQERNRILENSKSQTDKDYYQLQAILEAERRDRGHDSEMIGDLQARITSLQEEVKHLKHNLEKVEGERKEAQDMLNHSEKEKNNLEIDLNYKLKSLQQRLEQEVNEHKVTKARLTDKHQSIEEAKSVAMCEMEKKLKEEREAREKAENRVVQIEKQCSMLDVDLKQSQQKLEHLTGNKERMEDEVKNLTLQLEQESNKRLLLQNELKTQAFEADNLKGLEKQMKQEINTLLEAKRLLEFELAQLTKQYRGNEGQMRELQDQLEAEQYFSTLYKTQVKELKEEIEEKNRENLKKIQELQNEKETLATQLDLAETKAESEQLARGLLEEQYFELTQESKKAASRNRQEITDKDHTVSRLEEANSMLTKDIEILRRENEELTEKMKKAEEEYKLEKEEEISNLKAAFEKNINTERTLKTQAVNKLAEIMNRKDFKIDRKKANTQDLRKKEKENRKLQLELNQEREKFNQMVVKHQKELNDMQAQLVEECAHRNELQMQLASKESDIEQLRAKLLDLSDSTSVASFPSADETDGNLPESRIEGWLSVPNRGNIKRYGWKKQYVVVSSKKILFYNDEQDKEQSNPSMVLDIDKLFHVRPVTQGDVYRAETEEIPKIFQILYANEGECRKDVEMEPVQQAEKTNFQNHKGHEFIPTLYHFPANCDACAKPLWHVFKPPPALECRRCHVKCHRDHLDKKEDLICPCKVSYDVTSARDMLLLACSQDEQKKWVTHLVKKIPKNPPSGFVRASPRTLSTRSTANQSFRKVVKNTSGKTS
UniProt P42681, sequence (whole entry, looked up): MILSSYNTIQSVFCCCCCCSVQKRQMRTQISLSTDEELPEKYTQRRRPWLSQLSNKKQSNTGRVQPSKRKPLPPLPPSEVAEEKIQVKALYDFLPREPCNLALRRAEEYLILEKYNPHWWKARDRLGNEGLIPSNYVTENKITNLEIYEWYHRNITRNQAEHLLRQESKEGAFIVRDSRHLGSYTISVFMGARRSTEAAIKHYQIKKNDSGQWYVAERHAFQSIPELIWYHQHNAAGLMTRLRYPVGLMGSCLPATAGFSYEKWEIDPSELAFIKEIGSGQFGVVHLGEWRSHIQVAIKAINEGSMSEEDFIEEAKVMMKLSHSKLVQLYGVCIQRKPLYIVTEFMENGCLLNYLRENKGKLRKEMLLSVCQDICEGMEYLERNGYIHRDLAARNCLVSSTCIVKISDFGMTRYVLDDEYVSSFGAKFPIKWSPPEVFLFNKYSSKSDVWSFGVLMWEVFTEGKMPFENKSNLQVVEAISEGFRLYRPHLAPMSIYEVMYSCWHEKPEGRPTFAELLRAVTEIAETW
UniProt P50750, sequence (whole entry, looked up): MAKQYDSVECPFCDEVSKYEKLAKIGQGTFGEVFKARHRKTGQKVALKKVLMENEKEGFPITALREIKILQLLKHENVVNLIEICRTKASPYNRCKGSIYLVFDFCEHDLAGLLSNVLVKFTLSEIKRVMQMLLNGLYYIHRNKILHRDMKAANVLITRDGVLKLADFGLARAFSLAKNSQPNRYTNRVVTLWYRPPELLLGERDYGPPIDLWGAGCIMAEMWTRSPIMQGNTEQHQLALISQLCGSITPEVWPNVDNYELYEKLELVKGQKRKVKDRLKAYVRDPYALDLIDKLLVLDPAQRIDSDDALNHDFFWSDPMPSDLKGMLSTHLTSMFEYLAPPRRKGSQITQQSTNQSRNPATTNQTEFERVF
UniProt P54756, sequence (whole entry, looked up): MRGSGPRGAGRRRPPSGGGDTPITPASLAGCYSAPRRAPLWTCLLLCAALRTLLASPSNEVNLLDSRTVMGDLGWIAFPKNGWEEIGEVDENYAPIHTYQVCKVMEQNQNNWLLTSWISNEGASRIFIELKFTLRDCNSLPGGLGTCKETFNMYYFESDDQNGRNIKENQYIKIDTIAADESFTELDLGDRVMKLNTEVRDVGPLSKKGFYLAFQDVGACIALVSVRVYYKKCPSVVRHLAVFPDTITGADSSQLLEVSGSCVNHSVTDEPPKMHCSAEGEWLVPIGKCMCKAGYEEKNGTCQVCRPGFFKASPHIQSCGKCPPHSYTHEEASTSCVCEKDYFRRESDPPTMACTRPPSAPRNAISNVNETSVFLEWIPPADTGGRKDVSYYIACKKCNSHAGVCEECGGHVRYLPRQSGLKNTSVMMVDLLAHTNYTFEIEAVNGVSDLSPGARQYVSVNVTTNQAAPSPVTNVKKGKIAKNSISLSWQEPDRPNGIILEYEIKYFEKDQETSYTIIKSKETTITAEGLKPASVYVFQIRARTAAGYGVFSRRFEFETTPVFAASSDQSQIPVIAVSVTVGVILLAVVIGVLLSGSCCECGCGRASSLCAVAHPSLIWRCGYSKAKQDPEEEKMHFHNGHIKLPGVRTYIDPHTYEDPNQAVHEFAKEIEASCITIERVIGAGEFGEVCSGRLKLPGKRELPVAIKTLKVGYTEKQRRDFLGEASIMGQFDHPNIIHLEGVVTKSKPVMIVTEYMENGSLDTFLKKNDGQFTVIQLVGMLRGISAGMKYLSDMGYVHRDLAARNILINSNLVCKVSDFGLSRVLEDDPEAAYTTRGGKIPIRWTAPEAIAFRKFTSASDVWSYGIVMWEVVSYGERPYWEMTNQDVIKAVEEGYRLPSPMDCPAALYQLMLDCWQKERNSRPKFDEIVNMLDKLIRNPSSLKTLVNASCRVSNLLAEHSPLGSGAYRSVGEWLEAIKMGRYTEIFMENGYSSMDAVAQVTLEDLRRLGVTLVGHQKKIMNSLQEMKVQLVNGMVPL

Sample 1
Organism: Sarcocystis neurona
Read-out: parasite activity
Tested at: 10 µM
Time: 96 h
Under activity class, CC(C(=O)O)c1cccc(C(=O)c2ccccc2)c1 (stereo not drawn) is recorded as “inactive”.
For Cc1cc2c(s1)Nc1ccccc1N=C2N1CCN(C)CC1, activity class read “inactive”.
Nc1ccc(S(=O)(=O)c2ccc(N)cc2)cc1 — result for activity class: “inactive”.
Cc1ccc(S(=O)(=O)NC(=O)NN2CCCCCC2)cc1 — result for activity class: “inactive”.
COc1cc(C(=O)NC2CCCNC2)cc(OC)c1OC (stereo not drawn) — result for activity class: “inactive”.
N#Cc1ccc(C(c2ccc(C#N)cc2)n2cncn2)cc1 — result for activity class: “inactive”.
Under activity class, CC1=NS(=O)(=O)c2cc(Cl)ccc2N1 is recorded as “inactive”.

Sample 2
SMILES: CC(C)n1cnc(-c2ccc(F)cc2)c1-c1ncc(C(=O)Nc2ccc(N3CCN(C)CC3)cc2)[nH]1
Host: idiopathic pulmonary fibrosis patients
Medium: plasma
Route: oral
The AUC(0-t) was 803 ng·h/mL (30 mg once daily, week 12, median).
60 mg once daily, week 0, arithmetic mean — AUC(0-t): 1630 ng·h/mL.
For 30 mg once daily, week 12, arithmetic mean: AUC(0-t) read 788 ng·h/mL.

Sample 3
SMILES: c1ccc(-c2n[nH]c3c2oc2ccccc23)cc1
Read-out: enzyme activity
Action: inhibitor
Tested at: 0.5 µM
Relative to: control
The remaining activity was 90.2% (DCLK2 (Homo sapiens, UniProt Q8N568)).
It gave 98.2% for remaining activity (MARK4 (Homo sapiens, UniProt Q96L34)).
For CLK3 (Homo sapiens, UniProt P49761): remaining activity read 91%.
The remaining activity was 109% (PRKG2 (Homo sapiens, UniProt Q13237)).
AKT2 (Homo sapiens, UniProt P31751) — remaining activity: 112%.
ROCK1 (Homo sapiens, UniProt Q13464) — remaining activity: 99.1%.
The remaining activity was 93.7% (CAMK4 (Homo sapiens, UniProt Q16566)).
For PLK3 (Homo sapiens, UniProt Q9H4B4): remaining activity read 99.2%.
For KDR (Homo sapiens, UniProt P35968): remaining activity read 107%.
TXK (Homo sapiens, UniProt P42681) — remaining activity: 81.5%.
Cyclin-dependent kinase 9, with cyclin K (CDK9, Homo sapiens, UniProt P50750) — remaining activity: 86.2%.
It gave 98.9% for remaining activity (NEK3 (Homo sapiens, UniProt P51956)).
It gave 90.2% for remaining activity (RPS6KA4 (Homo sapiens, UniProt O75676)).

Sample 4
Compound: Cn1nc(C(F)(F)F)cc1-c1cnc(N2CCc3cc(S(=O)(=O)Nc4c(F)cc(Cl)cc4F)cc(N4CCCC4=O)c32)nc1
Read-out: cell-free assay
Technique: competition with immobilised ligand
Tested at: 1 µM
LATS2 (Homo sapiens, UniProt Q9NRM7) — remaining binding: 93%.
For EGFR (Homo sapiens, UniProt P00533, L861Q): remaining binding read 100%.
NTRK2 (Homo sapiens, UniProt Q16620) — remaining binding: 75%.
For Ribosomal protein S6 kinase alpha-2, C-terminal kinase domain (RPS6KA2, Homo sapiens, UniProt Q15349): remaining binding read 77%.
It gave 94% for remaining binding (EPHA5 (Homo sapiens, UniProt P54756)).
It gave 87% for remaining binding (CLK1 (Homo sapiens, UniProt P49759)).
PIK3CD (Homo sapiens, UniProt O00329) — remaining binding: 84%.

A few entries again (sample 4):
NTRK2 (Homo sapiens, UniProt Q16620) — remaining binding: 75%.
PIK3CD (Homo sapiens, UniProt O00329) — remaining binding: 84%.
It gave 94% for remaining binding (EPHA5 (Homo sapiens, UniProt P54756)).
It gave 87% for remaining binding (CLK1 (Homo sapiens, UniProt P49759)).
For Ribosomal protein S6 kinase alpha-2, C-terminal kinase domain (RPS6KA2, Homo sapiens, UniProt Q15349): remaining binding read 77%.
